Experimental data collected from several papers.
Every numbered part comes from another study and shows a few of its results, in no order.
UniProt Q9H093, sequence (whole entry, looked up): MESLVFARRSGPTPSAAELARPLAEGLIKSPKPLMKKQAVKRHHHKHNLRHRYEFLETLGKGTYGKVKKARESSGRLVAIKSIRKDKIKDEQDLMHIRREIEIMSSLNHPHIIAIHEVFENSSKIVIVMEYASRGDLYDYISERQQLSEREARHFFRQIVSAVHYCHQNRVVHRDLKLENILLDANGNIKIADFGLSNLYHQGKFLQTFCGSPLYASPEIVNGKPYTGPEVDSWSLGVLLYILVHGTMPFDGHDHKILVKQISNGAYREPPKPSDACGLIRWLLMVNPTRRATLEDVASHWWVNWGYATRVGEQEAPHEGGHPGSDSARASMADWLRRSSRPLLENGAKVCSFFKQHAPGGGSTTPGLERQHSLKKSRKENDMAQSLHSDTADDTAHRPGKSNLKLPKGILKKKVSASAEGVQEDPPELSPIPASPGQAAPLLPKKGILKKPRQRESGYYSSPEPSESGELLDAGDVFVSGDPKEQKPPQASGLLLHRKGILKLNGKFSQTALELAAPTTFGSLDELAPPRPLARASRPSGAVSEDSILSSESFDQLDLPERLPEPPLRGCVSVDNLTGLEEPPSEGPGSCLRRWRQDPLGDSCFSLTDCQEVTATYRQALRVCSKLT
UniProt Q9Y5S2, sequence (whole entry, looked up): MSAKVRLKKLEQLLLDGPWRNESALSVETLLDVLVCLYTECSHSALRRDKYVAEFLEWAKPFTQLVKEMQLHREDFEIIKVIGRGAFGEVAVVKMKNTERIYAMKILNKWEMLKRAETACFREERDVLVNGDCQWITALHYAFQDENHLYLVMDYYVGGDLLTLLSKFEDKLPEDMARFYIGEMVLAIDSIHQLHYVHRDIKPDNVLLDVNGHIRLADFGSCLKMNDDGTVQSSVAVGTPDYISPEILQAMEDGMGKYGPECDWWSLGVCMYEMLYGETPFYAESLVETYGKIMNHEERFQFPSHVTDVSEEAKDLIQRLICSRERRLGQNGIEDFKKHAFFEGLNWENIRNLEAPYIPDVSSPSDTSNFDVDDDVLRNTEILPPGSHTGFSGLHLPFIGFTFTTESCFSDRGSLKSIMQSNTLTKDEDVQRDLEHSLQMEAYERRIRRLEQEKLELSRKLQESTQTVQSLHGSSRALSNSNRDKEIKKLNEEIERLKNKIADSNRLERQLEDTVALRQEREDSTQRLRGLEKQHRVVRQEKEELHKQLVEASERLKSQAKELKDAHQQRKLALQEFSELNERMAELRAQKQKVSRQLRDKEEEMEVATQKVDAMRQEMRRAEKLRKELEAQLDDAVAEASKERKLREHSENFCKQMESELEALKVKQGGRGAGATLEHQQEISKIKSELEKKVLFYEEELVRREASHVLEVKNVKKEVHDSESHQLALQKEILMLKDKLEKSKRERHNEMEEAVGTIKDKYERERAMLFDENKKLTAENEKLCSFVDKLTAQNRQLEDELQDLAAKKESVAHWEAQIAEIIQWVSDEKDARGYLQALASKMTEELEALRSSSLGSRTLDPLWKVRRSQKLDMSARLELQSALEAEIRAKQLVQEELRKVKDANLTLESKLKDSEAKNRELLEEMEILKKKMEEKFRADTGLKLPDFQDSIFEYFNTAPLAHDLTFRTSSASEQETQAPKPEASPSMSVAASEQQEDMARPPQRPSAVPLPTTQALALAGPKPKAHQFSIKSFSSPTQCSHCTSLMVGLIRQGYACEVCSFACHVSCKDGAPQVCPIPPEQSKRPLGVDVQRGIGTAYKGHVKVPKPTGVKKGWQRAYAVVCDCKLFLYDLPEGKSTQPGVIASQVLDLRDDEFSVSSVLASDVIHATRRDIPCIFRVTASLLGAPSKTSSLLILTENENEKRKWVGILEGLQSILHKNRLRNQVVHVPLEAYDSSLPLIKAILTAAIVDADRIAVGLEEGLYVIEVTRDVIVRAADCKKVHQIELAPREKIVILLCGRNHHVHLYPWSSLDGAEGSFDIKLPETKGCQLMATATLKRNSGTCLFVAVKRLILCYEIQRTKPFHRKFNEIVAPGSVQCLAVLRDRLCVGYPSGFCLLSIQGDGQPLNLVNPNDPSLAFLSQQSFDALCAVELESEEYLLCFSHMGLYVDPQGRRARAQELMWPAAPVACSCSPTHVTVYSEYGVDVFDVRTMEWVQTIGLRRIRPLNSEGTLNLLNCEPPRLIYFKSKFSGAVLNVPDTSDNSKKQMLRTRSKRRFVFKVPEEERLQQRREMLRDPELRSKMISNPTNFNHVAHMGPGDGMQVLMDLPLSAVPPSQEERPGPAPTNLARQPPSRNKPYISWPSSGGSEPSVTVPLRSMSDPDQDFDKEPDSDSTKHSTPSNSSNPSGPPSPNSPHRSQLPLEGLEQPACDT
UniProt Q96PF2, sequence (whole entry, looked up): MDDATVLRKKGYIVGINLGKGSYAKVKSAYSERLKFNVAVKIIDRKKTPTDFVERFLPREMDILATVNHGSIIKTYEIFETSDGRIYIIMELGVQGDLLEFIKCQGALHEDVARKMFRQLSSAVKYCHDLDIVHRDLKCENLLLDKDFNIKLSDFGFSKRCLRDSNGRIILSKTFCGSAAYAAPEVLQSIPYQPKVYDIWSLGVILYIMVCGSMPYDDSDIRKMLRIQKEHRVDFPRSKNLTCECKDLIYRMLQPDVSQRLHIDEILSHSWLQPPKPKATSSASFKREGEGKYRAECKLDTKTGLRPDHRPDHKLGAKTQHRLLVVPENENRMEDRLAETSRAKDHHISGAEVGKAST

Sample 1
Target: Sodium-dependent noradrenaline transporter (SLC6A2, Homo sapiens, UniProt P23975)
UniProt P23975, sequence (whole entry, looked up): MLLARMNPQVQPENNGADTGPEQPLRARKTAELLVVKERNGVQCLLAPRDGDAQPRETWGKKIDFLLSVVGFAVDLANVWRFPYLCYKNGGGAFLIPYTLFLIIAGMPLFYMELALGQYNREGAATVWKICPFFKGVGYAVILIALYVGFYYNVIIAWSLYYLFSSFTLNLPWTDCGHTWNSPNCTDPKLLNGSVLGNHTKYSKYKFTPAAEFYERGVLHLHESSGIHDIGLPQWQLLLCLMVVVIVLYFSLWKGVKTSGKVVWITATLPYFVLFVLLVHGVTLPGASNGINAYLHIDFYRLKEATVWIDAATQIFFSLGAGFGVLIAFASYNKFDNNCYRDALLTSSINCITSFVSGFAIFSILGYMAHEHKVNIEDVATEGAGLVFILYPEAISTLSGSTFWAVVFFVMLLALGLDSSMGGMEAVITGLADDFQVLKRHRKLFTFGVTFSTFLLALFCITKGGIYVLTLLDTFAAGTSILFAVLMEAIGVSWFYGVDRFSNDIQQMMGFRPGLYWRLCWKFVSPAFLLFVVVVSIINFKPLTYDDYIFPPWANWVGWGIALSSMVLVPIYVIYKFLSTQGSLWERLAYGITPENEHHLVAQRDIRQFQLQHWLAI
Observed: cell-free assay
Concentration: 10 µM
Endpoint: inhibition
Cc1ccc(-c2cnc([C@@]3(O)CC[C@H](C(=O)O)C(C)(C)C3)s2)cc1Nc1cccc(C(F)(F)F)n1: -19.6%
CN(C)C(=O)Cn1cc(-c2nc(C3(c4ccc(-c5cnc(N)nc5)cc4)CC3)no2)cn1: 8.33%
CC(=O)Nc1ncc(CN2CCC[C@H](Cc3cc(C)nc(C)c3)C2)s1: 12.7%
N#CC1(c2ccccn2)CCN(Cc2cc(C(=O)N3CCCC3)c(=O)n3ccccc23)CC1: 40.5%
N#Cc1ccc(Nc2ccc3[nH]c(=O)[nH]c3c2)c(Cl)c1: -2.68%
Cc1c(NC(=O)c2cc(C(N)=O)nc3cc(F)ccc23)c(C(F)(F)F)nn1Cc1ccc(C#N)cc1: -14.2%
Cn1cc(Cl)c2c(Oc3c(F)cc(Nc4cc(Cl)nc(N)n4)cc3F)ccnc21: 3.14%
CCC(F)(F)c1cc(N2CCC(S(C)(=O)=O)CC2)nc2sc(C(N)=O)c(N)c12: 8.84%
Cc1ccccc1Oc1cc(-n2c(=O)cc(C(F)(F)F)[nH]c2=O)c2ccccc2c1Cl: -1.01%
CCOc1ccc(S(=O)(=O)Nc2ccc(Cl)cc2C#Cc2cnc(C(=O)O)cc2OC)c2ncccc12: 34.4%
Cn1nc(C(=O)NCc2ccc(C(=O)O)cc2)cc1-c1ccc2[nH]ccc2c1: -21.4%
COCCOc1nc(-c2ccc(Cl)nc2)nc2c1CN(C(=O)c1ncn3ccccc13)CC2: -6.81%
NC(=O)c1ccc2nc(-c3ccc(C4(N)CCC4)cc3)c(-c3ccccc3)n2n1: 47.5%
NS(=O)(=O)c1cc(NC(=O)C2(c3ccccc3Cl)CC2)ccc1Oc1cccc(Cl)c1: 22.4%
O=C(c1ccc(F)cc1)N1CC(COc2ccc(Br)cc2)(C(=O)O)C1: 16.8%
c1ccc(N2CCN(Cc3nc4ccccc4[nH]3)CC2)nc1: -14.8%
Nc1nc(NCc2ccccc2)nc(-c2cccc(CO)c2)n1: 8.6%
CO[C@H]1CC[C@H](CNc2ccc(S(=O)(=O)NC(=O)c3ccc(N4CCN(CC5=C(c6ccc(Cl)cc6)CC(C)(C)CC5)CC4)cc3Oc3cnc4[nH]ccc4c3)cc2[N+](=O)[O-])CC1: 39.5%
CN(C)CC#Cc1ccc(OCCCc2sc(N3CCc4cccc(C(=O)Nc5nc6ccccc6s5)c4C3)nc2C(=O)O)c(F)c1: 42.9%
CCC(=NO)C(C)=Cc1ccc(F)c(C)c1: 1.14%
COc1ccc2cc(OCC3(C(=O)O)CN(C(=O)c4ccc(F)cc4)C3)ccc2c1: 11%
Nc1nc(NCc2ccccc2)nc(-c2ccccc2CO)n1: 32.1%
CN(c1ccnc(CNc2nc(Nc3ccc4c(c3)CC(=O)N4)ncc2C(F)(F)F)n1)S(C)(=O)=O: 3.15%
COc1cc(C(=O)O)ncc1C#Cc1ccccc1NS(=O)(=O)c1cccc2c(N(C)C)ccnc12: -7.14%
Cc1c(C(=O)O)cc(-c2ccc(C3CCNCC3)cc2)c2ccc(-c3ccc(C(F)(F)F)cc3)cc12: 11.2%

Sample 2
Target: Eukaryotic initiation factor 4A-I (EIF4A1, Homo sapiens, UniProt P60842)
UniProt P60842, sequence (whole entry, looked up): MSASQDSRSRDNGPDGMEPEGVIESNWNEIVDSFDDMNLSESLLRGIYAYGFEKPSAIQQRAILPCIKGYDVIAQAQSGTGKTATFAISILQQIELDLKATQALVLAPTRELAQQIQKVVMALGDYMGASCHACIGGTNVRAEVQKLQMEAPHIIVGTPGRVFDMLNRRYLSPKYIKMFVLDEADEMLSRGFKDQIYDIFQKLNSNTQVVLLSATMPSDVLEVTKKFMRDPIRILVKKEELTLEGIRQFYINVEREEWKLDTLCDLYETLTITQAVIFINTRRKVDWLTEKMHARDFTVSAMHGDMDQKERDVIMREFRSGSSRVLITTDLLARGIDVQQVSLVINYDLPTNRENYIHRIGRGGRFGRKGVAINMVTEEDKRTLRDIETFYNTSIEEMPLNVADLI
Observed: RNA clamping
Technique: fluorescence polarization
Concentration: concentration not given
Notes: mean of two replicates
Together with: FAM-labelled poly r(AG)8 RNA
Endpoint: fluorescence polarization change
COc1ccc([C@@]23Oc4cc(OC)cc(OC)c4[C@@]24NC(C)=N[C@@]4(O)[C@H](C(=O)N(C)C)[C@H]3c2ccccc2)cc1: 95.4 mP
COC(=O)[C@@H]1[C@@H](c2ccccc2)[C@]2(c3ccc(OC)cc3)Oc3cc(OC)cc(OC)c3[C@@]23OC(c2ccc(OC)cc2)=N[C@@]13O: -0.8 mP
COC(=O)[C@@H]1[C@@H](c2ccccc2)[C@]2(c3ccc(OC)cc3)Oc3cc(OC)cc(OC)c3[C@@]23OC(c2ccccc2)=N[C@@]13O: -1.5 mP
COC(=O)[C@H]1[C@H](c2ccccc2)[C@@]2(c3ccc(Br)cc3)Oc3cc(OC)cc(OC)c3[C@]1(O)[C@H]2O: 9.2 mP
COC(=O)[C@@H]1[C@@H](c2ccccc2)[C@]2(c3ccc(OC)cc3)Oc3cc(OC)cc(OC)c3[C@@]23OC(c2ccc(F)cc2)=N[C@@]13O: 22.8 mP
COc1cc(OC)c2c(c1)O[C@@]1(c3ccc(Br)cc3)[C@H](c3ccccc3)[C@@H](C(=O)N(C)C)[C@@H](O)[C@@]21O: 85.9 mP
CCOC(=O)[C@H]1[C@@H](c2ccccc2)[C@]2(c3ccc(Br)cc3)Nc3cc(OC)cc(OC)c3[C@@]1(O)[C@H]2O: 11.8 mP
COc1cc(OC)c2c(c1)O[C@@]1(c3ccc(Br)cc3)[C@H](c3ccccc3)C[C@@H](O)[C@@]21O: 26.8 mP

Sample 3
Organism: Sarcocystis neurona
Observed: parasite activity
Concentration: 10 µM
Time: 96 h
Endpoint: activity class
CC(C)[C@]12O[C@H]1[C@@H]1O[C@]13[C@]1(O[C@H]1C[C@H]1C4=C(CC[C@@]13C)C(=O)OC4)[C@@H]2O: inactive
CCC1(c2ccc(N)cc2)CCC(=O)NC1=O (centres unmarked): inactive
CN1C(=O)CN=C(c2ccccc2)c2cc(Cl)ccc21: inactive
O=C(O)C(Cl)Cl: inactive
C#CCN(C)[C@H](C)Cc1ccccc1: inactive
NC1=NC(=O)C(c2ccccc2)O1 (centres unmarked): inactive
c1cncc([C@@H]2CCCN2)c1: inactive

Sample 4
Cell line: HaCaT
Concentration: 100 µM
Time: 36 h
Endpoint: viability
C[C@]12CCC(=O)C(O)=C1CC[C@@H]1[C@@H]2CC[C@]2(C)C(=O)CC[C@@H]12: 81.4%
CCCC(C)(COC(N)=O)COC(=O)NC(C)C (centres unmarked): 90.3%
CC(O)(CS(=O)(=O)c1ccc(F)cc1)C(=O)Nc1ccc(C#N)c(C(F)(F)F)c1 (centres unmarked): 39.6%

Sample 5
Compound: CC(C)(C)c1cc(C=C(C#N)C#N)cc(Br)c1O
Observed: enzyme activity
Action: inhibitor
Concentration: 0.5 µM
Endpoint: remaining activity
NUAK2 (Homo sapiens, UniProt Q9H093): 99.6%
CDC42BPB (Homo sapiens, UniProt Q9Y5S2): 103%
TSSK2 (Homo sapiens, UniProt Q96PF2): 96.6%

Sample 6
Target: Calcium/calmodulin-dependent protein kinase type II subunit alpha (CAMK2A, Homo sapiens, UniProt Q9UQM7)
UniProt Q9UQM7, sequence (whole entry, looked up): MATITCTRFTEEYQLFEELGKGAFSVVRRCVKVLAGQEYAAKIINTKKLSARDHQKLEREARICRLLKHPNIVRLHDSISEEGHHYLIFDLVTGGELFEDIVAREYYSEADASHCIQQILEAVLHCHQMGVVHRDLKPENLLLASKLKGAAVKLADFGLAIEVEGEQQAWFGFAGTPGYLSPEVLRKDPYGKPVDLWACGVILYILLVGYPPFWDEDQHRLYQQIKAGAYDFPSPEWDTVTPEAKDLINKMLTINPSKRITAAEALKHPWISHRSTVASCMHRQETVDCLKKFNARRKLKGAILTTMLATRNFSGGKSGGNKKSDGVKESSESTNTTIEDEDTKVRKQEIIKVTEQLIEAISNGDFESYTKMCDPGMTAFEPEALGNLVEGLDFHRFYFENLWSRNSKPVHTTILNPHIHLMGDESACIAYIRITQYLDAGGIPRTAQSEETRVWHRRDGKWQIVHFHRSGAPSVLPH
Observed: enzyme activity
Action: inhibitor
Concentration: 10 µM
Endpoint: inhibition
C[C@]12CC[C@@H](O)C[C@@H]1CC[C@@H]1[C@@H]2[C@@H](O)C[C@]2(C)C(=O)CC[C@@H]12: -22%
C[S+]([O-])/C=C/CCN=C=S (centres unmarked): -13%
CC(=O)OC(C)(C)/C=C/C(=O)[C@](C)(O)[C@H]1[C@H](O)C[C@@]2(C)[C@@H]3CC=C4[C@@H](C[C@H](O)C(=O)C4(C)C)[C@]3(C)C(=O)C[C@]12C: -13%
C[C@H]1O[C@@H](O[C@H]2CC[C@@]3(C)[C@H](CC[C@@H]4[C@@H]3C[C@@H](O)[C@]3(C)[C@@H](C5=CC(=O)OC5)CC[C@]43O)C2)C[C@H](O)[C@@H]1O[C@H]1C[C@H](O)[C@H](O[C@H]2C[C@H](O)[C@H](O[C@@H]3O[C@H](CO)[C@@H](O)[C@H](O)[C@H]3O)[C@@H](C)O2)[C@@H](C)O1: -5%
CC[C@@]1(O)C(=O)OCc2c1cc1n(c2=O)Cc2cc3ccccc3nc2-1: -7%
C[C@@]1(C(=O)O)CC[C@]2(C)CC[C@]3(C)C4=CC(=O)c5c(cc(O)c(O)c5C=O)[C@]4(C)CC[C@@]3(C)[C@@H]2C1: -32%
CC(C)(N)CNC(=O)C[C@H]1CC[C@]2(CC1)OO[C@]1(O2)C2CC3CC(C2)CC1C3: 4%

Some of these lines once more (sample 1):
Cc1ccccc1Oc1cc(-n2c(=O)cc(C(F)(F)F)[nH]c2=O)c2ccccc2c1Cl: -1.01%
CCOc1ccc(S(=O)(=O)Nc2ccc(Cl)cc2C#Cc2cnc(C(=O)O)cc2OC)c2ncccc12: 34.4%
Cn1nc(C(=O)NCc2ccc(C(=O)O)cc2)cc1-c1ccc2[nH]ccc2c1: -21.4%
COCCOc1nc(-c2ccc(Cl)nc2)nc2c1CN(C(=O)c1ncn3ccccc13)CC2: -6.81%
NC(=O)c1ccc2nc(-c3ccc(C4(N)CCC4)cc3)c(-c3ccccc3)n2n1: 47.5%
